Measured values from different studies.
± marks the error that the study gave.
Tln1: Tln1 309-405 (Mus musculus, UniProt P26039)
Sequence of UniProt P26039 (whole entry, looked up): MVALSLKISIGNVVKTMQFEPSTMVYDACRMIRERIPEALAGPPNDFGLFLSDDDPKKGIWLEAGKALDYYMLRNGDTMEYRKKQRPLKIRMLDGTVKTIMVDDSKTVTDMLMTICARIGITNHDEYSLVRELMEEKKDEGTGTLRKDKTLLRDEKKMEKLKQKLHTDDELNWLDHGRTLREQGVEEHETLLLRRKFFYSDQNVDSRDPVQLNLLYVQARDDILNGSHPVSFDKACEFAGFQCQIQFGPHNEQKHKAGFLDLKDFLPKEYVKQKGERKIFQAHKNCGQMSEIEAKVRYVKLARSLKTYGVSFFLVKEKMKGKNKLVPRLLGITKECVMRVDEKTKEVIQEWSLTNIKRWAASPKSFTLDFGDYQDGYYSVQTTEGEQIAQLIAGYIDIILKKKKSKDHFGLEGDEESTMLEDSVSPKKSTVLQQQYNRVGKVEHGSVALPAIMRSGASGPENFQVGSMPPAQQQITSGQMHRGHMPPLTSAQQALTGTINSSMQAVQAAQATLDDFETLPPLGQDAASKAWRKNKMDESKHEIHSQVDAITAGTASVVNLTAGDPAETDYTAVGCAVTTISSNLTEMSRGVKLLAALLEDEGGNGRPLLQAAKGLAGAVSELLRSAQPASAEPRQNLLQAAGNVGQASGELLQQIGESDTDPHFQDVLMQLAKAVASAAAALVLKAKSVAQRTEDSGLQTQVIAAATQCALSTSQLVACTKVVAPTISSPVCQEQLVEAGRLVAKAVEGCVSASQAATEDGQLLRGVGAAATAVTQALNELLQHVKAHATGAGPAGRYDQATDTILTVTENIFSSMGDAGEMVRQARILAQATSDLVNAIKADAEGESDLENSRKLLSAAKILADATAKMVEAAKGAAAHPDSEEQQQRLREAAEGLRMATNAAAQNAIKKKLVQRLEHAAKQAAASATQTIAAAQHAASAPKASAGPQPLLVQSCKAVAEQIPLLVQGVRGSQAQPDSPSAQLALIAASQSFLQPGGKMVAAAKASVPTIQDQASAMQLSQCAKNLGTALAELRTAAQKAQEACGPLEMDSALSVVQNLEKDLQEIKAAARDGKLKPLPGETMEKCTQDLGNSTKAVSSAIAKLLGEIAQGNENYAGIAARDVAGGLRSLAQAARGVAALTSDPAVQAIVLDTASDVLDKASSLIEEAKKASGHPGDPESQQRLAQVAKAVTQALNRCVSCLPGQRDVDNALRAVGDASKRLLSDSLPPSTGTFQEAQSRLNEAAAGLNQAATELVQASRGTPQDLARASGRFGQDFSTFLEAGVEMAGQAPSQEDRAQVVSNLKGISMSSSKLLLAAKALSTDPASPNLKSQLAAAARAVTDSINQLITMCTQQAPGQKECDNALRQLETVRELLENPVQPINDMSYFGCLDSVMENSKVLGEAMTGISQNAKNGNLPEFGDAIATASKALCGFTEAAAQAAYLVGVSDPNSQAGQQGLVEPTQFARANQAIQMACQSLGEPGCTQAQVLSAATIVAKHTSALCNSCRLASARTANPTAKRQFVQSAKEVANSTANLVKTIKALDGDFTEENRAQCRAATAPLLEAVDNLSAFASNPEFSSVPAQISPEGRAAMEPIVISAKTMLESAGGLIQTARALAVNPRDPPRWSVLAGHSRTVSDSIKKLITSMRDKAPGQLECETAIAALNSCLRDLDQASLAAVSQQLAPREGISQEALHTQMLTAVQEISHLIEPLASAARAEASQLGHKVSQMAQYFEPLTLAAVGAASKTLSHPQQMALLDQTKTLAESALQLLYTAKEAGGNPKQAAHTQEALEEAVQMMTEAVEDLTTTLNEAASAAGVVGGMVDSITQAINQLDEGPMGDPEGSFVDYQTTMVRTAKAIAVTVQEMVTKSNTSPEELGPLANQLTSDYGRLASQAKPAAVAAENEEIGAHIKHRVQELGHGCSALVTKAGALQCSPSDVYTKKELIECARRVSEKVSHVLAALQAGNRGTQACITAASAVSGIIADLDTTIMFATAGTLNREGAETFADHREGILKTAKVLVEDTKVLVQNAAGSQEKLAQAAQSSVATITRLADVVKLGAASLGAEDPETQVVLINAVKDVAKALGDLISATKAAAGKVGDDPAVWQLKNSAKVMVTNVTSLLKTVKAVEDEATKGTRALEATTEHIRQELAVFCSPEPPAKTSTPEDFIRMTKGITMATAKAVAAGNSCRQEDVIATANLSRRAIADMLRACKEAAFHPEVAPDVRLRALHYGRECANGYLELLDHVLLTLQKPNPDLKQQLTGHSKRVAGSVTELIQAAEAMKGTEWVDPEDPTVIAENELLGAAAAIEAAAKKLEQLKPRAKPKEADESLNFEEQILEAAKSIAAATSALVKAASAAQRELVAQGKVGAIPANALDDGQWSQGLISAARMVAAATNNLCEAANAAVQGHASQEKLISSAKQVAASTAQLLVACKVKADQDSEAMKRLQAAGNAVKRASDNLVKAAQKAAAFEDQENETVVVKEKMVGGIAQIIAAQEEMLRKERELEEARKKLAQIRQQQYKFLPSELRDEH
T1: CAP1/CAP2 heterodimer (Saccharomyces cerevisiae); chain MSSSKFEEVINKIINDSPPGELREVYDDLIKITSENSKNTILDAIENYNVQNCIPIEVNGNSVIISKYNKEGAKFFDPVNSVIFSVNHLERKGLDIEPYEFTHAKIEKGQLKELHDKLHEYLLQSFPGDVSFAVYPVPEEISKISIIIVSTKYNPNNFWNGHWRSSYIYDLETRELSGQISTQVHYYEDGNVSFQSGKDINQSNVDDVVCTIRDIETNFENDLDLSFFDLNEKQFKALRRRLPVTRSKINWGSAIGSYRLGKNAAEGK; chain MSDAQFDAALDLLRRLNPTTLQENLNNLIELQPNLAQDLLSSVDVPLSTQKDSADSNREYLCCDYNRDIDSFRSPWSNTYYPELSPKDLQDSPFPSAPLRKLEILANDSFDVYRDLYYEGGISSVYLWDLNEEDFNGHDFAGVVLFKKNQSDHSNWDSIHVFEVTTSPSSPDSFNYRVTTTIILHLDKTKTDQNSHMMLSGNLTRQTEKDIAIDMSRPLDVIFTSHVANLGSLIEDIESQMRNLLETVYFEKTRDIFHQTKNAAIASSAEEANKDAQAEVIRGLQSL
B1: CFH 1108-1231 R1215Q (Homo sapiens, UniProt P08603); sequence looked up; chain KCGPPPPIDNGDITSFPLSVYAPASSVEYQCQNLYQLEGNKRITCRNGQWSEPPKCLHPCVISREIMENYNIALRWTAKQKLYSRTGESVEFVCKRGYRLSSRSHTLQTTCWDGKLEYPTCAKR
B2: SSC3 substrate-binding domain 415-644 (Saccharomyces cerevisiae); chain TPLSLGIETLGGVFTKLIPRNSTIPNKKSQIFSTAASGQTSVEVKVFQGERELVKDNKLIGNFTLAGIPPAPKGTPQIEVTFDIDANGIINVSAKDLASHKDSSITVAGASGLSDTEIDRMVNEAERYKNQDRARRNAIETANKADQLANDTENSIKEFEGKLDKTDSQRLKDQISSLRELVSRSQAGDEVNDDDVGTKIDNLRTSSMKLFEQLYKNSDNPETKNGRENK
B3: scFv; chain EVQLVQSGAGVKKPGSSVKVSCKSSGGTSGSSAVSWIRQAPGQGVEWMGGITSIFGPANYAQKFQDRLKITADKATNTVYMELSGLTFEDTAVYYCARVGDYNFWNGHYRSGYYFDLWGRGTLVTVSSGGGGSGGGGSGGGGSAQSVLTQPPSASGTPGQRVTISCSGSSSNIGSNTVNWYQQLPGTAPKLLIYSNTQRPSGVPDRFSGSKSATSASLAISGLQSEDEADYYCAAWDDSLNGHVVFGGGTKVTVLG
B4: LLGL2 13-978 (Homo sapiens, UniProt Q6P1M3); Hilyte488 N-terminal label; chain RERLKRDLFQFNKTVEHGFPHQPSALGYSPSLRILAIGTRSGAIKLYGAPGVEFMGLHQENNAVTQIHLLPGQCQLVTLLDDNSLHLWSLKVKGGASELQEDESFTLRGPPGAAPSATQITVVLPHSSCELLYLGTESGNVFVVQLPAFRALEDRTISSDAVLQRLPEEARHRRVFEMVEALQEHPRDPNQILIGYSRGLVVIWDLQGSRVLYHFLSSQQLENIWWQRDGRLLVSCHSDGSYCQWPVSSEAQQPEPLRSLVPYGPFPCKAITRILWLTTRQGLPFTIFQGGMPRASYGDRHCISVIHDGQQTAFDFTSRVIGFTVLTEADPAATFDDPYALVVLAEEELVVIDLQTAGWPPVQLPYLASLHCSAITCSHHVSNIPLKLWERIIAAGSRQNAHFSTMEWPIDGGTSLTPAPPQRDLLLTGHEDGTVRFWDASGVCLRLLYKLSTVRVFLTDTDPNENFSAQGEDEWPPLRKVGSFDPYSDDPRLGIQKIFLCKYSGYLAVAGTAGQVLVLELNDEAAEQAVEQVEADLLQDQEGYRWKGHERLAARSGPVRFEPGFQPFVLVQCQPPAVVTSLALHSEWRLVAFGTSHGFGLFDHQQRRQVFVKCTLHPSDQLALEGPLSRVKSLKKSLRQSFRRMRRSRVSSRKRHPAGPPGEAQEGSAKAERPGLQNMELAPVQRKIEARSAEDSFTGFVRTLYFADTYLKDSSRHCPSLWAGTNGGTIYAFSLRVPPAERRMDEPVRAEQAKEIQLMHRAPVVGILVLDGHSVPLPEPLEVAHDLSKSPDMQGSHQLLVVSEEQFKVFTLPKVSAKLKLKLTALEGSRVRRVSVAHFGSRRAEDYGEHHLAVLTNLGDIQVVSLPLLKPQVRYSCIRREDVSGIASCVFTKYGQGFYLISPSEFERFSLSTKWLVEPRCLVDSAETKNHRPGNGAGPKKAPSRARNSGTQSDGEEKQPGLVMER
B5: GIGYF2 35-105 E46A/E47F/Q89A (Homo sapiens, UniProt Q6Y7W6-1); chain KYKLADYRYGRAFMLALFLKDNKIPSDLLDKEFLPILQEEPLPPLALVPFTEEEARNFSMSVNSAAVLRLT
B6: Cacna1c 1647-1777 (Mus musculus, UniProt Q01815); sequence looked up; chain NALSLQAGLRTLHDIGPEIRRAISGDLTAEEELDKAMKEAVSAASEDDIFRRAGGLFGNHVTYYQSDSRGNFPQTFATQRPLHINKTGNNQADTESPSHEKLVDSTFTPSSYSSTGSNANINNANNTALGR
B7: Mdm2 153-308 (Rattus norvegicus, UniProt A0A0G2JVC1); sequence looked up; chain PSTSSRRRAISETEENTDELPGERQRKRHRALSFDESLGLCVLREICCERSSSSEATDTPSHQDLDDGVSDHSADCLDQDSVSDQFSVEFEVESLDSEDYSLSDEGHELSDEDDEVYRVTVYQAGESDADSFEGDPEISLADYWKCTSCNEMNPPL
B8: SGIP1 69-156 S95C (mouse, UniProt Q8VD37); Alexa Fluor 488 label; chain AEIDWERYNSPELDEEGYSIRPEEPGCTKGKHFYSSSESEEEEESHKKFNIKIKPLQSKDVLKNAATVDELKASIGNIALSPSPVRKS
B9: Pigr 19-135 (Mus musculus, UniProt O70570); chain KSPIFGPQEVSSIEGDSVSITCYYPDTSVNRHTRKYWCRQGASGMCTTLISSNGYLSKEYSGRANLINFPENNTFVINIEQLTQDDTGSYKCGLGTSNRGLSFDVSLEVSQVPELPS
B10: NR3C1 1-420 (Homo sapiens, UniProt P04150); pyrene label; chain MDSKESLTPGREENPSSVLAQERGDVMDFYKTLRGGATVKVSASSPSLAVASQSDSKQRRLLVDFPKGSVSNAQQPDLSKAVSLSMGLYMGETETKVMGNDLGFPQQGQISLSSGETDLKLLEESIANLNRSTSVPENPKSSASTAVSAAPTEKEFPKTHSDVSSEQQHLKGQTGTNGGNVKLYTTDQSTFDILQDLEFSSGSPGKETNESPWRSDLLIDENCLLSPLAGEDDSFLLEGNSNEDCKPLILPDTKPKIKDNGDLVLSSPSNVTLPQVKTEKEDFIELCTPGVIKQEKLGTVYCQASFPGANIIGNKMSAISVHGVSTSGGQMYHYDMNTASLSQQQDQKPIFNVIPPIPVGSENWNRCQGSGDDNLTSLGTLNFPGRTVFSNGYSSPSMRPDVSSPPSSSSTATTGPPPKL
B11: IgG; V domains shown; VH QVQLVQSGAEVKKPGASVKVSCKASGYTFTNYGLSWVRQAPGQGLEWMGWISANNGDTNYGQEFQGRVTMTTDTSTSTAYMELRSLRSDDTAVYYCARDSSSSWARWFFDLWGRGTLVTVSS; VL SYVLTQPPSVSVAPGKTARITCGGNIIGSKLVHWYQQKPGQAPVLVIYDDGDRPSGIPERFSGSNSGNTATLTISRVEAGDEADYYCQVWDTGSDPVVFGGGTKLTVL
B12: mglB (Myxococcus xanthus, UniProt Q1DB03); sequence looked up; chain MGTQLVMYEEEFTKINAVCDRLTKDANAKVVFLVDKNGQLISSAGQTQNIDTTSLASLTAGNVAAMGGLAKLIGENEFPNQFHEGAKDSLYMTIVGSRVVLVVIFDNRTSLGLVRLRIKKASDELTKIFESLVKKTDSPGAGSPFAEISDDDIDNLFSE
B13: NUB1 (Homo sapiens); chain GPGSMAQKKYLQAKLTQFLREDRIQLWKPPYTDENKKVGLALKDLAKQYSDRLECCENEVEKVIEEIRCKAIERGTGNDNYRTTGIATIEVFLPPRLKKDRKNLLETRLHITGRELRSKIAETFGLQENYIKIVINKKQLQLGKTLEEQGVAHNVKAMVLELKQSEEDARKNFQLEEEEQNEAKLKEKQIQRTKRGLEILAKRAAETVVDPEMTPYLDIANQTGRSIRIPPSERKALMLAMGYHEKGRAFLKRKEYGIALPCLLDADKYFCECCRELLDTVDNYAVLQLDIVWCYFRLEQLECLDDAEKKLNLAQKCFKNCYGENHQRLVHIKGNCGKEKVLFLRLYLLQGIRNYHSGNDVEAYEYLNKARQLFKELYIDPSKVDNLLQLGFTAQEARLGLRACDGNVDHAATHITNRREELAQIRKEEKEKKRRRLENIRFLKGMGYSTHAAQQILLSNPQMWWLNDSNPETDNRQESPSQENIDRLVYMGFDALVAEAALRVFRGNVQLAAQTLAHNGGSLPPELPLSPEDSLSPPATSPSDSAGTSSASTDEDMETEAVNEILEDIPEHEEDYLDSTLEDEEIIIAEYLSYVENRKSATKKN
Sequence of UniProt Q99816 (whole entry, looked up): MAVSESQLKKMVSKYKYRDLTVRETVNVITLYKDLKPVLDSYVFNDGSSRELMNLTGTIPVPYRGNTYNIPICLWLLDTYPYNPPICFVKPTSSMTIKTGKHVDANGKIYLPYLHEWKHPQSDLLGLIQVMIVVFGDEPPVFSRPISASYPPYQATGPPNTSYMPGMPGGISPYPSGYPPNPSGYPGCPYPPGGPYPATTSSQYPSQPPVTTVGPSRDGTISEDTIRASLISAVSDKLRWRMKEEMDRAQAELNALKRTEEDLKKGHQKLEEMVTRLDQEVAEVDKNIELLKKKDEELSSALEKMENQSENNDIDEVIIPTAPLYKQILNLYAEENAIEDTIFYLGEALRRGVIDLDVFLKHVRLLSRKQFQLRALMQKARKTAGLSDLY
Sequence of UniProt P01024 (whole entry, looked up): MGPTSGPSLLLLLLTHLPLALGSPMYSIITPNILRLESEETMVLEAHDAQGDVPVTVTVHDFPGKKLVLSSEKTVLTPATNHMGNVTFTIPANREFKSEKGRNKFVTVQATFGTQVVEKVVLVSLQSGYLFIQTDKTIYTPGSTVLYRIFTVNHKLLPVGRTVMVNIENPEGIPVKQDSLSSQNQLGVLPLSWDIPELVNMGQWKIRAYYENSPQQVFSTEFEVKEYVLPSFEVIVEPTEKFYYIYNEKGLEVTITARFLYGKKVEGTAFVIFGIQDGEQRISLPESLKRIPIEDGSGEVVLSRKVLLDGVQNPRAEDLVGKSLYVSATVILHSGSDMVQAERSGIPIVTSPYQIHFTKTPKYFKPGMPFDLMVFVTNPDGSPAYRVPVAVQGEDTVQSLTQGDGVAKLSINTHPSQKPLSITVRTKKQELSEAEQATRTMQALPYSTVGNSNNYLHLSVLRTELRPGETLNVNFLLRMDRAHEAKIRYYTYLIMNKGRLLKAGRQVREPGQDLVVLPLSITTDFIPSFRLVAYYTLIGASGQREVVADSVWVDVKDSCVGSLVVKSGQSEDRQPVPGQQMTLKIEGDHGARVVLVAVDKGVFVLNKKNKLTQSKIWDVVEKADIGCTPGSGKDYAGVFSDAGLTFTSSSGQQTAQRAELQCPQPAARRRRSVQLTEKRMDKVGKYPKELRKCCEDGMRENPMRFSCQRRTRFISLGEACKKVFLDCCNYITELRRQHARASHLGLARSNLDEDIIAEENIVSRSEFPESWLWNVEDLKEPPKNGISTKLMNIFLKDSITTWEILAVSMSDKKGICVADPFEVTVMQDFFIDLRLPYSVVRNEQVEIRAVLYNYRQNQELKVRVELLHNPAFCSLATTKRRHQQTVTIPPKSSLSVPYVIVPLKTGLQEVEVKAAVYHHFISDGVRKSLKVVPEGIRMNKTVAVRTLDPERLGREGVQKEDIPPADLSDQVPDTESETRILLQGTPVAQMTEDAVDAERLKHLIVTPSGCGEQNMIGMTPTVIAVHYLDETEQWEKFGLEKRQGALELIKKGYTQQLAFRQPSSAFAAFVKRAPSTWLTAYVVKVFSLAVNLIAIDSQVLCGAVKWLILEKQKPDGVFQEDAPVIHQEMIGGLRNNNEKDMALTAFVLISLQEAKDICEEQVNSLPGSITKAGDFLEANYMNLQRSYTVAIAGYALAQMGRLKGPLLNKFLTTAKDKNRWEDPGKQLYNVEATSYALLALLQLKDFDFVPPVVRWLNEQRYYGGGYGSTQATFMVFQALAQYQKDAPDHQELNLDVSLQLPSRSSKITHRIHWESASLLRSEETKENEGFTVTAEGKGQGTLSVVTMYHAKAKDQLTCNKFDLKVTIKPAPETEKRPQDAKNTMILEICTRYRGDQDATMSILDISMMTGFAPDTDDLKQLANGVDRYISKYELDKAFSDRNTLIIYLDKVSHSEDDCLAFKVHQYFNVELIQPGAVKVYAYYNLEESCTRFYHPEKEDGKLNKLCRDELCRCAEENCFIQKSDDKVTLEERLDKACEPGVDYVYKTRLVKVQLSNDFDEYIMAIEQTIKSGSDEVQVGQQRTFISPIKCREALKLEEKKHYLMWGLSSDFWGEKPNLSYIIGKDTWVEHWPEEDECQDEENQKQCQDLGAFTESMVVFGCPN
Sequence of UniProt P25963 (whole entry, looked up): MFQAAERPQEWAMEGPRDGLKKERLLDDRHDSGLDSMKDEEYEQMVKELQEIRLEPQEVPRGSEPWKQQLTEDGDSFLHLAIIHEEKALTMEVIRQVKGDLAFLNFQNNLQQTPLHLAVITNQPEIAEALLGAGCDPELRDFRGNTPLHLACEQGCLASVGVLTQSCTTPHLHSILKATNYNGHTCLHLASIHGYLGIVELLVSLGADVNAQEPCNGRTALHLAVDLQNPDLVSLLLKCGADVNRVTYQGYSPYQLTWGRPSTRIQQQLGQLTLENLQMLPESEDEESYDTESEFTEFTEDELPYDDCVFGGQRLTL
Sequence of UniProt O75365 (whole entry, looked up): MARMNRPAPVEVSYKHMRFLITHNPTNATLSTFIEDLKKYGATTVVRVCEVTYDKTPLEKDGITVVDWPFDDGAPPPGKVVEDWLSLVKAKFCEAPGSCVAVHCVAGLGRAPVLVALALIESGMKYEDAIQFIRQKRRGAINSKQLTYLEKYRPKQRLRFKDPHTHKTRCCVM

`DDRHRIEEKRKRTYETFKSIMKKSPFNGP (Rela 293-321 (Mus musculus, UniProt Q04207); sequence looked up)` has a Kd of 371 ± 1 nM (NFKBIA 67-206 (Homo sapiens, UniProt P25963); ITC; peptide).
The Kd of `B1 (CFH 1108-1231 R1215Q)` is reported as 8000 ± 100 nM (C3 C3dg 955-1303 (Homo sapiens, UniProt P01024); SPR).
With `petF ferredoxin (Synechocystis sp. PCC 6803, UniProt P27320)` the Kd was 16800 ± 2600 nM (narB D163E (Synechococcus sp. PCC 7942); UV-visible difference titration).
With `B2` the Kd was 26900 ± 2640 nM (GOT2 mitochondrial targeting sequence, fluorescein label on cysteine (Gallus gallus); fluorescence polarization).
The Kd of `B3 (scFv)` is reported as less than 1000 nM (SIK3 59-385 (Homo sapiens, UniProt Q9Y2K2); SPR; scFv).
The Kd of `B4 (LLGL2 13-978)` is reported as 9.7 nM (PRKCI/PARD6B 1-596, activation loop phosphorylated; fluorescence polarisation; with: AMP-PNP).
With `B5 (GIGYF2 35-105 E46A/E47F/Q89A)` the Kd was 0.5 ± 0.3 nM (EIF4E2 52-234 Q159S/M161D/R202E (Homo sapiens, UniProt O60573-1); ITC; peptide).
With `B6 (Cacna1c 1647-1777)` the Kd was 7270 nM (Jph2 1-440 S165P (Mus musculus, UniProt Q9ET78); ITC).
For `GRGRGRGRGRGRGRGRGRGRGRGRGRGRGRGRGRGRGRGR ((GR)20 20 repeats; TAMRA label N-terminal)`, the Kd was 54.8 ± 9.9 nM (FUS 215-526 (Homo sapiens, UniProt P35637); fluorescence polarisation; peptide).
The Kd of `RDETVKETKPLVHPNKNRTRGPRRKLPTRV (BSP1 547-576 (Saccharomyces cerevisiae); N-terminal FITC)` is reported as 45 nM (T1, CAP1/CAP2 heterodimer (Saccharomyces cerevisiae); fluorescence polarisation; peptide; one-site fit).
`KLLITIHDRKEFAKFEEERANAKWDTANNPLYKEATSTFTNITYRGT (ITGB3 742-788 R736N (Homo sapiens, UniProt P05106); sequence looked up)` gave a Kd of 279000 nM (Tln1; NMR titration).
`CNNM2 CBS-pair domain (Danio rerio)` gave a Kd of 14 nM (PTP4A3 1-169 (Homo sapiens, UniProt O75365); ITC; 20 °C).
`B7 (Mdm2 153-308)` gave a Kd of 20900 nM (Arrb2 (Rattus norvegicus, UniProt P29067); BLI).
For `B8 (SGIP1 69-156 S95C)`, the Kd was 540 nM (AP2A2/AP2B1/AP2M1/AP2S1 core, lacking appendage domains (Mus musculus); MST).
The Kd of `LEIEPRNPKP (SOS1 proline-rich peptide, 1014-1023)` is reported as 730000 nM (GRB2 1-58 (Homo sapiens, UniProt P62993); NMR titration; peptide).
The Kd of `KLLMIIHDRREFAKFEKEKMNAKWDTGENPIYKEAVTTVVNPKYEGK (ITGB1 752-798 S785E (Homo sapiens, UniProt P05556-1); sequence looked up)` is reported as 494000 nM (Tln1; NMR titration).
For `SCN2A IQ region R1902C (Homo sapiens) (sequence not shown)`, the Kd was 21.6 nM (CALM1 (Homo sapiens, UniProt P0DP23); fluorescence titration; with: CaCl2).
`B9 (Pigr 19-135)` has a Kd of 810 nM (IgA Fc/J chain CH2-CH3 domains D137A (Mus musculus); SPR).
With `B10 (NR3C1 1-420)` the Kd was 21000 nM (TSG101 229-304 coiled coil, pyrene label (Homo sapiens, UniProt Q99816); fluorescence anisotropy).
With `B11 (IgG)` the Kd was 0.063 nM (IL13 fragment (Homo sapiens); SPR; antibody).
With `B12 (mglB)` the Kd was 751 ± 111 nM (mglA (Myxococcus xanthus, UniProt Q1DB04); ITC; 25 °C, with: GDP 100 µM).
`B13 (NUB1)` has a Kd of 176 ± 6.8 nM (FAT10 GG-FAT10 full length, N-terminal 5-FAM (Homo sapiens); FP).

For quick reference, copied from above:
With `B5 (GIGYF2 35-105 E46A/E47F/Q89A)` the Kd was 0.5 ± 0.3 nM (EIF4E2 52-234 Q159S/M161D/R202E (Homo sapiens, UniProt O60573-1); ITC; peptide).
The Kd of `LEIEPRNPKP (SOS1 proline-rich peptide, 1014-1023)` is reported as 730000 nM (GRB2 1-58 (Homo sapiens, UniProt P62993); NMR titration; peptide).
With `B12 (mglB)` the Kd was 751 ± 111 nM (mglA (Myxococcus xanthus, UniProt Q1DB04); ITC; 25 °C, with: GDP 100 µM).
